Experimental data from different studies.
A part holds a random share of what one study measured. Positions count from the first letter of the parent shown.

Sample 1 — target: CCNE2, cyclin fold, Cln2 fusion (human); method: yeast growth competition, sequencing; medium: yeast; notes: strong parent motif; reference: not given; direction: higher = stronger binding; endpoint: normalised enrichment score
Parent: E2F1 docking peptide (human); PPVKRRLDLETDH; partner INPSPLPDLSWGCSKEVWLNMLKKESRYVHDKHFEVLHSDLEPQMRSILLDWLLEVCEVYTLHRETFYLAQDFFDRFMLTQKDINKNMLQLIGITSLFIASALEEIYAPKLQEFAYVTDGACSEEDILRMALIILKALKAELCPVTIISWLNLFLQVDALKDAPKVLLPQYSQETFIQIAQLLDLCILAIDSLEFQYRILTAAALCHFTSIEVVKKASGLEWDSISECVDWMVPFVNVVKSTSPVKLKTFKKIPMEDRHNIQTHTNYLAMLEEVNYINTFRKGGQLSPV
Variant = PPVKRRLDLETFH [D12F]; value = 3.18
Variant = PPVKRMLDLETDH [R6M]; value = 0.673
Variant = PPVKRRLDLETWH [D12W]; value = 1.8

Sample 2 — target: Sox-I, HMG box (Salpingoeca helianthica); method: Spec-seq; form: double-stranded DNA, one strand shown; medium: in vitro; tested at: not given; notes: whole probe, mean of replicates; reference: not given; direction: lower = stronger binding; endpoint: relative binding energy; constant ends, left off below: GAGTCGTCTCGTCAGCAC … CCGTAGAGCACTCAGGTC
Residues (chain): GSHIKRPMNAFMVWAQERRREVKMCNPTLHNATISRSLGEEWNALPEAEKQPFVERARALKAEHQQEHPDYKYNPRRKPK
Sequence = ATCCGTT; value = 0.0258 ln ratio
Sequence = TAAAGTT; value = 0.372 ln ratio
Sequence = CTTAGTT; value = 0.261 ln ratio
Sequence = CATGACC; value = 0.726 ln ratio
Sequence = CAAGGTT; value = 0.852 ln ratio
Sequence = CTAAGTT; value = 0.63 ln ratio
Sequence = CATAAGC; value = 0.501 ln ratio
Sequence = CATAGAT; value = 0.405 ln ratio

Sample 3 — method: protein binding microarray; form: double-stranded DNA, one strand shown; medium: in vitro; tested at: not given; reference: not given; direction: higher = stronger binding; endpoint: E-score
Target: Histone acetyltransferase KAT6A, winged helix 2, GST fusion (KAT6A, Homo sapiens, UniProt Q92794, residues 85-181)
Notes: 8-mer, flanks averaged, mean of 2 arrays, mostly near background
Residues (chain): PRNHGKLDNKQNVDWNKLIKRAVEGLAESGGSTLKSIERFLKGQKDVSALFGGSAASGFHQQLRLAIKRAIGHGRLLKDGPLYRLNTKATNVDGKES
Sequence = GACGCATA; value = -0.0916
Sequence = GCAACCCA; value = 0.0175
Sequence = CGGCACCC; value = -0.0302
Sequence = CGCAGTGC; value = 0.131
Sequence = GAGCTATA; value = -0.157
Sequence = AGCATGAA; value = 0.0216
Sequence = CTGTTTAC; value = -0.0795
Sequence = CCACCAAA; value = 0.145

Single results of other studies
Molecule = PhoQ, residues 284 288 289 292 302 303 TVTVVA; target = PhoP, residues 12 14 15 18 19 TQAIL (Escherichia coli, UniProt P23836); assay = Sort-seq, refers to: YFP reporter; test system = E. coli; setting = PhoQ-PhoP variant library, together with: 10 µM Mg2+; scale = reference: high Mg2+ state, higher = stronger signaling; endpoint = fold induction; value = 20.9

Excerpt of the above (sample 2):
Sequence = ATCCGTT; value = 0.0258 ln ratio
Sequence = TAAAGTT; value = 0.372 ln ratio
